Measured values of several laboratories.
Protocols differ between the studies behind these lines. ± gives the spread as reported.

O=C(O)CC[C@H](NC(=O)O[C@@H](CCCCNC(=O)c1ccc([18F])cc1)C(=O)O)C(=O)O  tissue uptake (mouse, PC-3 PIP/flu xenografts, fat; 90 min): 0.11 ± 0.06 %ID/g
N=C(N)NCc1ccc(C(=O)NCCCC[C@H](NC(=O)N[C@@H](CCC(=O)O)C(=O)O)C(=O)O)cc1[211At]  tissue uptake (SCID mouse, PC-3 xenografts, brain; 21 h): 0.04 ± 0.02 %ID/g
C=Cc1cc(O)cc2nc(-c3ccc(O)c([76Br])c3)oc12  tissue uptake (female C57BL/6 mouse, blood; 3 h, high dose, added: estradiol 20 µg blocking): 0.19 ± 0.08 %ID/g
CCNc1cc2[o+]c3cc(NCC)c(C)cc3c(-c3ccccc3C(=O)OCCOCC[18F])c2cc1C  tissue uptake (rat, kidney; 30 min): 7.9 ± 1.05 %ID/g
COc1cc2ncnc(Oc3cccc(N[11C](=O)Nc4cc(C(C)(C)C(F)(F)F)on4)c3)c2cc1OC  tissue uptake (Balb/c nude mouse, female, A375 melanoma xenograft, kidney; 6.6 MBq, 60 min): 9.77 ± 0.45 %ID/g
N=C(N)NCc1ccc(C(=O)NCCCC[C@H](NC(=O)CCCCCCC(=O)NCCCC[C@H](NC(=O)N[C@@H](CCC(=O)O)C(=O)O)C(=O)O)C(=O)O)cc1[131I]  tissue uptake (SCID mouse, PC-3 xenografts, blood; 1 h): 0.46 ± 0.17 %ID/g
COc1cc(C(=O)NCCOCCOCCOCCNC(=O)c2ccc([18F])nc2)ccc1NC(=O)C1NC(CC(C)(C)C)C(C#N)(c2ccc(Cl)cc2F)C1c1cccc(Cl)c1F (stereo not drawn)  tissue uptake (athymic male mice, HepG2 xenograft, bladder; 2 h): 2.55 ± 2.73 %ID/g
O=C(c1ccc(F)cc1)C1CCN(C2Cc3c(cccc3OCC[18F])CC2O)CC1 (single isomer, unassigned; (-))  tissue uptake (Sprague-Dawley rat, male, bone; intravenous, dose not given, 120 min): 0.537 ± 0.035 %ID/g
N=C(N)NCc1ccc(C(=O)NCCCC[C@H](NC(=O)N[C@@H](CCC(=O)O)C(=O)O)C(=O)O)cc1[131I]  tissue uptake (SCID mouse, PC-3 xenografts, spleen; 4 h): 3.5 ± 2.69 %ID/g
CN[C@](C)(C[18F])C(=O)O  tissue uptake (SCID mouse SK-OV-3 xenograft, muscle; 60 min post injection): 1.3 ± 0.2 %ID/g
N=C(N)NCc1ccc(C(=O)NCCCC[C@H](NC(=O)CCCCCCC(=O)NCCCC[C@H](NC(=O)N[C@@H](CCC(=O)O)C(=O)O)C(=O)O)C(=O)O)cc1[211At]  tissue uptake (SCID mouse, PC-3 xenografts, liver; 21 h): 0.59 ± 0.21 %ID/g
CCCC[C@H](NC(=O)CCOCCOCCNC(=O)CN1CCN(CC(=O)O)CCN(CC(=O)O)CCN(CC(=O)O)CC1)C(=O)N[C@H]1CC(=O)NCCCC[C@@H](C(N)=O)NC(=O)[C@H](Cc2c[nH]c3ccccc23)NC(=O)[C@H](CCCNC(=N)N)NC(=O)[C@@H](Cc2ccccc2)NC(=O)[C@H](Cc2c[nH]cn2)NC1=O [gallium-68 labelled]  tissue uptake (C57BL/6J mice male B16-F10 tumour, bone; 1 h post injection, unblocked): 0.2 ± 0.1 %ID/g

For quick reference, copied from above:
O=C(c1ccc(F)cc1)C1CCN(C2Cc3c(cccc3OCC[18F])CC2O)CC1 (single isomer, unassigned; (-))  tissue uptake (Sprague-Dawley rat, male, bone; intravenous, dose not given, 120 min): 0.537 ± 0.035 %ID/g
